Measured values collected from several papers.
Each numbered part is a random draw from the data of one study; scales do not carry over between parts.

Set 1
Organism: Leishmania donovani
Cells: THP-1
Strain: DD8
Matrix: intracellular amastigotes
Baseline: THP-1 cytotoxicity over amastigote activity
The selectivity index of CCOc1ccc(Nc2c3c(nc4ccc(Cl)cc24)CCC3)cc1 is reported as 5.02.
With Cc1ccc2nc3c(c(Nc4ccc(O)cc4)c2c1)CCC3 the selectivity index was 2.91.
COC(=O)c1ccc(Nc2c3c(nc4ccccc24)CCC3)cc1 has a selectivity index of 2.02.
With CC(=O)c1cccc(Nc2c3c(nc4ccccc24)CCC3)c1 the selectivity index was 2.34.
For c1ccc2c(Nc3ccc4c(c3)OCCO4)c3c(nc2c1)CCC3, the selectivity index was 4.18.

Set 2
Organism: Arabidopsis thaliana
Strain: Col-0
Concentration: 3.125 µg/mL
Notes: seed germination
CC(C)=CCN1C(=O)C(O)(C(=O)O)Oc2cc(F)ccc21 (stereo not drawn) gave a root length of 1.17 cm.
With O=C(O)C1Oc2cc(F)ccc2N(Cc2ccccc2)C1=O (stereo not drawn) the root length was 1.13 cm.
CCCN1C(=O)C(O)(C(=O)O)Oc2cc(F)ccc21 (stereo not drawn) has a root length of 1.08 cm.
For CC(C)(C)c1ccc(Oc2ccc3c(c2)OC(O)(C(=O)O)C(=O)N3Cc2ccccc2)cc1 (stereo not drawn), the root length was 1.1 cm.
With CCN1C(=O)C(O)(C(=O)O)Oc2cc(F)ccc21 (stereo not drawn) the root length was 1.06 cm.
For O=C(O)C1(O)Oc2cc(Br)ccc2N(Cc2ccccc2)C1=O (stereo not drawn), the root length was 1.17 cm.
For Cc1ccc2c(c1)OC(O)(C(=O)O)C(=O)N2Cc1ccccc1 (stereo not drawn), the root length was 1.17 cm.
O=C(O)C1(O)Oc2cc(F)ccc2N(Cc2ccccc2)C1=O (stereo not drawn) gave a root length of 0.7 cm.

Set 3
Cell line: P493B lymphoma cells
Matrix: P493B cells in human plasma
Concentration: concentration not given
Notes: tumour cell fraction of partition
CC(=O)N[C@@H](Cc1c[nH]c2ccccc12)C(=O)N[C@@H](CCC(=O)C=[N+]=[N-])C(N)=O gave a DON concentration of 0.86 nmol/g.
COCCOCCOC(=O)[C@H](CCC(=O)C=[N+]=[N-])NC(=O)[C@H](Cc1c[nH]c2ccccc12)NC(C)=O has a DON concentration of 2.89 nmol/g.
COCCOCCOC(=O)[C@H](CCC(=O)C=[N+]=[N-])NC(=O)[C@H](Cc1c[nH]c2ccccc12)NC(=O)CN(C)C has a DON concentration of 2.05 nmol/g.
With CC(=O)N[C@@H](Cc1c[nH]c2ccccc12)C(=O)N[C@@H](CCC(=O)C=[N+]=[N-])C(=O)OC(CF)CF the DON concentration was 2.06 nmol/g.

Further values, each from its own experiment
With Cn1cc(-c2cccc(CN3CCC4(CC3)COc3c4ccc4c3CN([C@H]3CCC(=O)NC3=O)C4=O)c2)cn1 the clearance was 18.1 mL/min/kg (cynomolgus monkey, plasma; intravenous, 1 mg/kg).
